Literature values, collected from citations in different studies.
± gives the spread as reported.

SMILES	test	test system	conditions	how to read	quantity	result
O=C(O)CCC(NP(=O)(O)OCCC[C@@H](NC(=O)CCC(NC(=O)CCCCCNC(=O)c1ccc([18F])cc1)C(=O)O)C(=O)O)C(=O)O (stereo partly drawn)		mouse, CWR22Rv1 xenograft, tumour	4 h		tumour retention	2.35 %ID/g
OC1C=Cc2c(cc3ccc4cccc5c6ccccc6c2c3c45)C1O (stereo not drawn)		human liver microsomes	phase I		CLint	540 µL/min/mg
O=C1NC(=O)/C(=C/c2ccc3ncnc(N4CCC(F)CC4)c3n2)S1		mouse	5 days		NOAEL	30 mg/kg
NC(=O)N[C@H]1CC[C@H](CCN2CCN(c3cccc(Cl)c3Cl)CC2)CC1		human, plasma			half-life	2 to 3 weeks
CN[C@H](CC(C)C)C(=O)N[C@H]1C(=O)N[C@@H](CC(N)=O)C(=O)N[C@H]2C(=O)N[C@H]3C(=O)N[C@H](C(=O)N[C@H](C(=O)NCCCNC(=N)N)c4cc(O)cc(O)c4-c4cc3ccc4O)[C@H](O)c3ccc(c(Cl)c3)Oc3cc2cc(c3O[C@@H]2O[C@H](CO)[C@@H](O)[C@H](O)[C@H]2O[C@H]2C[C@](C)(NCc3ccc(-c4ccc(Cl)cc4)cc3)[C@H](O)[C@H](C)O2)Oc2ccc(cc2Cl)[C@H]1O		mouse	intravenous, 10 mg/kg		clearance	1.5 mL/min/kg
C[C@H]1[C@H](OC(=O)CC[C@@H](C)C2CCC3C4C(CC[C@@]32C)[C@@]2(C)CC[C@@H](O)CC2C[C@@H]4O)O[C@@H]2O[C@@]3(C)CCC4[C@H](C)CC[C@@H]1[C@]42OO3 (stereo partly drawn)		cell culture medium	up to 24 h		stability	stable
CCOC(=O)CNC(=O)[C@@H]1C[C@H](C)CC[C@H]1C(C)C		rat Crl:CD(SD)	oral gavage, 90 days		NOAEL	75 mg/kg/day
[O-][N+]1=C(c2ccsc2)C2=NCCCN2c2ccccc21		octanol/PBS			logP	-0.01
Cc1ccc(Sc2cc(O)ccc2N2CCNCC2)c(C)c1		plasma	vortioxetine	relative to: metabolite AUC over vortioxetine AUC	metabolic ratio	≤ 0.04
COc1ccc(CCN2CCN(C/C=C/[125I])CC2)cc1OC			pH 7.4		logD	2.25 ± 0.01
CN[C@H](CC(C)C)C(=O)N[C@H]1C(=O)N[C@@H](CC(N)=O)C(=O)N[C@H]2C(=O)N[C@H]3C(=O)N[C@H](C(=O)N[C@H](C(=O)O)c4cc(O)cc(O)c4-c4cc3ccc4O)[C@H](O)c3ccc(c(Cl)c3)Oc3cc2cc(c3O[C@@H]2O[C@H](CO)[C@@H](O)[C@H](O)[C@H]2O[C@H]2C[C@](C)(NCc3ccc(-c4ccc(Cl)cc4)cc3)[C@H](O)[C@H](C)O2)Oc2ccc(cc2Cl)[C@H]1O		mouse, plasma	intravenous, 75 mg/kg (MTD)		volume of distribution	1.24 L/kg
CC(=O)N1CC2(CCN(C(=O)[C@@H](CCCCN)NC(=O)[C@@H](CC(C)C)NC(=O)[C@@H](Cc3ccccc3)NC(=O)[C@H](N)Cc3ccccc3)CC2)C1		mouse	0.4 mg/kg		locomotor activity	no effect
C[C@H](Nc1c(-c2c(F)cc(OCCCN(C)C)cc2F)c(Cl)nc2ncnn12)C(F)(F)F		mice			brain-to-plasma AUC ratio	0.37
N[C@@H](CN[C@@H](CN[C@@H](CC(=O)O)C(=O)O)C(=O)O)C(=O)O		mouse	intravenous		LD50	> 150 mg/kg
CN1CCN([C@@H](c2ccccc2)c2ccc(Cl)cc2)CC1		mouse, liver	intraperitoneal, 50 mg/kg		half-life	120 min
CN1CCN(C(=O)N(CCCCCCC(=O)NO)c2ccc(-c3ccc4cnn(C)c4c3)cc2)CC1		lymphoma and myeloma patients	dose not given, phase I		safety and tolerability	not toxic
CC1(O)CC23CC(O)C4(O)C(C5OC5C4(C)C)C(C)(O)C2CCC1C3O (stereo not drawn)		mouse	oral		LD50	7.61 mg/kg
CN1CC[C@]2(C)c3cc(OC(=O)Nc4ccccc4)ccc3NC12 (single isomer, unassigned; (+))		human, plasma	40 mg Posiphen		Cmax	31 ng/mL
CC/C=C\C/C=C\C/C=C\C/C=C\CC/C=C/CSCC(=O)C(F)(F)F		human, plaque psoriasis	topical, up to 5%		tolerability	not toxic
CCN1CCCC1CNC(=O)c1cc(Br)cc(OC)c1O[11CH3] (stereo not drawn)	HPLC				log kw	1.89
[O-][N+]1=C(c2ccc(Cl)cc2)C2=NCCCN2c2ccccc21		octanol/PBS			logP	0.836
CSCC[C@H](NC(=O)CNC(=O)CNC(=O)[C@H](CO)NC(=O)[C@H](CC(C)C)NC(=O)[C@@H]1CCCN1C(=O)[C@H](CO)NC(=O)[C@H](CC(N)=O)NC(=O)[C@H](CC(C)C)NC(=O)[C@H](C)NC(=O)[C@@H](NC(=O)[C@H](CC(C)C)NC(=O)[C@H](Cc1c[nH]cn1)NC(=O)[C@H](CC(C)C)NC(=O)[C@@H](NC(=O)[C@@H]1CCCN1C(=O)[C@H](CCC(N)=O)NC(=O)[C@H](Cc1ccccc1)NC(=O)[C@H](CC(=O)O)NC(=O)[C@H](CCCNC(=N)N)NC(=O)[C@H](Cc1c[nH]cn1)NC(=O)[C@H](CO)NC(=O)[C@H](Cc1c[nH]cn1)NC(=O)[C@H](CCSC)NC(=O)[C@H](CC(=O)O)NC(=O)CNC(=O)[C@H](CCCNC(=N)N)NC(=O)[C@H](CC(=O)O)NC(=O)CNC(=O)[C@@H](N)CCCNC(=N)N)C(C)C)C(C)C)C(N)=O		cynomolgus monkey	15 mg/kg		elimination half-life	7.8 min
CCCCCCCC(=O)OC[C@H](NC(=O)[C@H](CO)NC(=O)CN)C(=O)N[C@@H](Cc1ccccc1)C(=O)N[C@@H](CC(C)C)C(=O)N[C@@H](CO)C(=O)N1CCC[C@H]1C(=O)N[C@@H](CCC(=O)O)C(=O)N[C@@H](Cc1cnc[nH]1)C(=O)N[C@@H](CCC(N)=O)C(=O)N[C@@H](CCCNC(=N)N)C(=O)N[C@H](C(=O)N[C@@H](CCC(N)=O)C(=O)N[C@@H](CCC(N)=O)C(=O)N[C@@H](CCCNC(=N)N)C(=O)N[C@@H](CCCCN)C(=O)N[C@@H](CCC(=O)O)C(=O)N[C@@H](CO)C(=O)N[C@@H](CCCCN)C(=O)N[C@@H](CCCCN)C(=O)N1CCC[C@H]1C(=O)N1CCC[C@H]1C(=O)N[C@@H](C)C(=O)N[C@@H](CCCCN)C(=O)N[C@@H](CC(C)C)C(=O)N[C@@H](CCC(N)=O)C(=O)N1CCC[C@H]1C(=O)N[C@@H](CCCNC(=N)N)C(=O)O)C(C)C	item: total ghrelin		intravenous infusion, 5 pmol/kg/min, 180 min		initial half-life	24.2 ± 2.5 min
COC[C@@H](NC(C)=O)C(=O)NCc1ccc(OCc2ccccc2F)cc1	behavioural toxicity	rat	oral		TD50	> 500 mg/kg
Br.Br.Br.CNC1C(O)C(NC)C2OC3(O)C(OC(C)C[C@H]3NC(=O)Cc3ccccn3)OC2C1O (stereo partly drawn)		mouse liver microsomes			half-life	> 600 min
CN(C)C(=N)N=C(N)N		human	dose not given		oral absorption	50%
C=C(C)[C@@H]1CCC(CO)=C[C@H]1c1c(O)cc(CCCCC)cc1O		healthy volunteers	dose not given, steady state, with: stiripentol		decrease in Cmax	29%

A few entries again:
SMILES	test	test system	conditions	how to read	quantity	result
CC(=O)N1CC2(CCN(C(=O)[C@@H](CCCCN)NC(=O)[C@@H](CC(C)C)NC(=O)[C@@H](Cc3ccccc3)NC(=O)[C@H](N)Cc3ccccc3)CC2)C1		mouse	0.4 mg/kg		locomotor activity	no effect
C[C@H](Nc1c(-c2c(F)cc(OCCCN(C)C)cc2F)c(Cl)nc2ncnn12)C(F)(F)F		mice			brain-to-plasma AUC ratio	0.37
N[C@@H](CN[C@@H](CN[C@@H](CC(=O)O)C(=O)O)C(=O)O)C(=O)O		mouse	intravenous		LD50	> 150 mg/kg
